Experimental data pooled from the literature.
Every numbered part comes from another study and shows a few of its results, in no order. Values joined by “and” are separate records of one study, mostly repeats; a detail may differ.
UniProt P50406, sequence (whole entry, looked up): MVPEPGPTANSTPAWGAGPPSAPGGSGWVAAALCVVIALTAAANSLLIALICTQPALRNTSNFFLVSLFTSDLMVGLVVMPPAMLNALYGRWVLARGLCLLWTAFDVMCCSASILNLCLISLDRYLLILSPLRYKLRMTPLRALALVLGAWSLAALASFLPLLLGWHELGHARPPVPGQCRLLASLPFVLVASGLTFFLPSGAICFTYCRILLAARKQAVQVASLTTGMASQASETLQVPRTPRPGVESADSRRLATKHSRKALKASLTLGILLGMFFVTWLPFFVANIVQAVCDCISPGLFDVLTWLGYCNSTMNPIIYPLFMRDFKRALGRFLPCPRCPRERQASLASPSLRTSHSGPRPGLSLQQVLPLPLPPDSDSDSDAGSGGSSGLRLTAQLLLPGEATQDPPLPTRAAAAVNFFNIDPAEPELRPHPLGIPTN
UniProt P08913, sequence (whole entry, looked up): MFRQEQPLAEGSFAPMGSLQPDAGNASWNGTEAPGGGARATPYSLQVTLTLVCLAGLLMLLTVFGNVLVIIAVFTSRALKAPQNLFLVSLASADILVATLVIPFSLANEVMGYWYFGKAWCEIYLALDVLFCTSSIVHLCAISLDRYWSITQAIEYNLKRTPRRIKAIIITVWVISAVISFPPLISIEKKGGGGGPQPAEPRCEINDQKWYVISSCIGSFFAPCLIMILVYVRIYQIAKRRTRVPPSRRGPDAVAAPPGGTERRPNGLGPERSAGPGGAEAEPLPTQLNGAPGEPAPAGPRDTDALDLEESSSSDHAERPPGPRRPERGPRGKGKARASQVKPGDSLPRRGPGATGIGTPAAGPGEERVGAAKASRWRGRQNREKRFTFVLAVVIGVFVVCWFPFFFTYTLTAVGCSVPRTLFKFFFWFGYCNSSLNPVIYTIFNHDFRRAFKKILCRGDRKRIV
UniProt Q99720, sequence (whole entry, looked up): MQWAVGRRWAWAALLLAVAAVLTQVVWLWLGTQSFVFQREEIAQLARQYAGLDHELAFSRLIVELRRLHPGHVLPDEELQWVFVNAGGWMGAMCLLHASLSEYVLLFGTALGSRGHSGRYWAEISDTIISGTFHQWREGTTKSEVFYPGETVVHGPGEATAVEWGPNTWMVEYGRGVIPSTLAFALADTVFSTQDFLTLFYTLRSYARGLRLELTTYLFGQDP
UniProt P0C1S8, sequence (whole entry, looked up): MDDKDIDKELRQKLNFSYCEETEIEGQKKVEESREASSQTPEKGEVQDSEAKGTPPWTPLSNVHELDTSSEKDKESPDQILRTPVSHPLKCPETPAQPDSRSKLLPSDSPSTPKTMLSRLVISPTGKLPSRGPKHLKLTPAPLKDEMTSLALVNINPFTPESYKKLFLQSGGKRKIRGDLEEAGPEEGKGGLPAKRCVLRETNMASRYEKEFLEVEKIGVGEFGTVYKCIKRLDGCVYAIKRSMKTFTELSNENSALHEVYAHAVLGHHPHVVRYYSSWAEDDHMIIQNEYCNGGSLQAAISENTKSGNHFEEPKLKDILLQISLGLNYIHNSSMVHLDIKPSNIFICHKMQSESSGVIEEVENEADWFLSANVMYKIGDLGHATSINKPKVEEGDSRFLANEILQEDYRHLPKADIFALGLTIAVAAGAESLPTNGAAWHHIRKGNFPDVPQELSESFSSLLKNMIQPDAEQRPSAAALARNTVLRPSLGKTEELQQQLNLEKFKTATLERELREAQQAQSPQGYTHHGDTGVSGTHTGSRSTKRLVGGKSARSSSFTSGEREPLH
UniProt Q8NG66, sequence (whole entry, looked up): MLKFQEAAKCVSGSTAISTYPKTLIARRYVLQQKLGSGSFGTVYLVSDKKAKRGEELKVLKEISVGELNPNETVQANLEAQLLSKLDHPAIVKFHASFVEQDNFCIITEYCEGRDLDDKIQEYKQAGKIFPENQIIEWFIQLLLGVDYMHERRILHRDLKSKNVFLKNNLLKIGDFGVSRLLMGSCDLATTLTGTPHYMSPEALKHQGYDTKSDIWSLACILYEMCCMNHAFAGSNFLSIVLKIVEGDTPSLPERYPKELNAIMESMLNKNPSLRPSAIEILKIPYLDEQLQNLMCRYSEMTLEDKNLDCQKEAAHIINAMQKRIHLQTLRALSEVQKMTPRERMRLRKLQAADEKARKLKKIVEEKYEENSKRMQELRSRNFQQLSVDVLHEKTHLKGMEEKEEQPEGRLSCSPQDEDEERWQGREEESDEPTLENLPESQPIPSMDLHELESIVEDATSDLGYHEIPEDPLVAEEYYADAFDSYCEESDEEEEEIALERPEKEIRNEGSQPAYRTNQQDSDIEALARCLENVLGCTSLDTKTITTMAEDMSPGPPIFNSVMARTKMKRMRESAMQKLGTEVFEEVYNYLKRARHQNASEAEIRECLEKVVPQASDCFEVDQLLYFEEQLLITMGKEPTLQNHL
UniProt P35367, sequence (whole entry, looked up): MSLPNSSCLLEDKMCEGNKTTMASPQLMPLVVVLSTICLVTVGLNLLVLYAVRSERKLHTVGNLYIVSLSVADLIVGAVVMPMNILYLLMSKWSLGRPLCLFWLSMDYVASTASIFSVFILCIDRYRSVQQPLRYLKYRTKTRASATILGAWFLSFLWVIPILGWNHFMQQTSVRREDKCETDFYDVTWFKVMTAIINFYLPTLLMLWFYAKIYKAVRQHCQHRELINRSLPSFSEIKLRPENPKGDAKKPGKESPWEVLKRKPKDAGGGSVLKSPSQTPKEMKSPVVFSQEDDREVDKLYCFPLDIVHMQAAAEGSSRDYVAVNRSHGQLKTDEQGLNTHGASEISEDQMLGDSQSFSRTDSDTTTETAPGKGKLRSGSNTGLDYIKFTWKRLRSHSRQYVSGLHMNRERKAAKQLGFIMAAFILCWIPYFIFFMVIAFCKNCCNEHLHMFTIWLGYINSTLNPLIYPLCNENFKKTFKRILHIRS
UniProt P08172, sequence (whole entry, looked up): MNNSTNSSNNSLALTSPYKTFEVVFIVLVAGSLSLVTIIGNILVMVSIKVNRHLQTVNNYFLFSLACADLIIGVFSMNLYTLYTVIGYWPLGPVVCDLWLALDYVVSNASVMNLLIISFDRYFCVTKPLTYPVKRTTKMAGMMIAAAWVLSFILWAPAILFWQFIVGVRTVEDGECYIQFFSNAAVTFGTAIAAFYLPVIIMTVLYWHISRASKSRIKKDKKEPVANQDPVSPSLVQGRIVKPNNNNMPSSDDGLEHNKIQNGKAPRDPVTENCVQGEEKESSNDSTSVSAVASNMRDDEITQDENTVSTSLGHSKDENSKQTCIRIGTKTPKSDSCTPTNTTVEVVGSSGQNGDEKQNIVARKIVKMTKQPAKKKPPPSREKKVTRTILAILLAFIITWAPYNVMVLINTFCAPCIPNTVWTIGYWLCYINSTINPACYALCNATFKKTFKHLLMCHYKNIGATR
UniProt P25100, sequence (whole entry, looked up): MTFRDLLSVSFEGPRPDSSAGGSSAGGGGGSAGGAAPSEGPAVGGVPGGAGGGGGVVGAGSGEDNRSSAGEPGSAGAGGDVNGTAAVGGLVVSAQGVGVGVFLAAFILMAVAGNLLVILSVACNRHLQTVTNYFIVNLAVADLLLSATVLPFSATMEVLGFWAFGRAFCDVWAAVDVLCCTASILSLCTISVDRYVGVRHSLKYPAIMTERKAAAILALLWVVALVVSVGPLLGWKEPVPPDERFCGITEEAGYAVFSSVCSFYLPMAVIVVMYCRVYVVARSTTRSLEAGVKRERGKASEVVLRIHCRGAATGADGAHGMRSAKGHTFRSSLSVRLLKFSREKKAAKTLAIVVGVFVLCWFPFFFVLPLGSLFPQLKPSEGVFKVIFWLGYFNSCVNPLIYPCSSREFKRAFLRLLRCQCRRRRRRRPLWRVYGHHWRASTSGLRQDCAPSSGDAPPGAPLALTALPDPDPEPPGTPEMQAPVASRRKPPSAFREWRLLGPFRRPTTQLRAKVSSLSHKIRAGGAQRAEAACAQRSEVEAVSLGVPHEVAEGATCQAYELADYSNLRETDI
UniProt Q9Y2H1, sequence (whole entry, looked up): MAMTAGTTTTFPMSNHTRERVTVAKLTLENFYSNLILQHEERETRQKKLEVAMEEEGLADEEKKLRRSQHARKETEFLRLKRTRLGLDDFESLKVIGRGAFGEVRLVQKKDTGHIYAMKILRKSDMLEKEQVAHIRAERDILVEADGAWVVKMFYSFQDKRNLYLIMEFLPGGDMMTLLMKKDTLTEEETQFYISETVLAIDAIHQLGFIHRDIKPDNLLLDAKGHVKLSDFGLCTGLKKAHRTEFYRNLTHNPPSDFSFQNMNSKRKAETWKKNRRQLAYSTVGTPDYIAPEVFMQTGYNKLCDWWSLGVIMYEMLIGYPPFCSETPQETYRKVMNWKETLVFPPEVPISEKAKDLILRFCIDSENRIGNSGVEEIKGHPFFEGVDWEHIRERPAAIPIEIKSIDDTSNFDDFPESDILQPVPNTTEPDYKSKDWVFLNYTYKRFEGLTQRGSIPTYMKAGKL
UniProt Q9H3N8, sequence (whole entry, looked up): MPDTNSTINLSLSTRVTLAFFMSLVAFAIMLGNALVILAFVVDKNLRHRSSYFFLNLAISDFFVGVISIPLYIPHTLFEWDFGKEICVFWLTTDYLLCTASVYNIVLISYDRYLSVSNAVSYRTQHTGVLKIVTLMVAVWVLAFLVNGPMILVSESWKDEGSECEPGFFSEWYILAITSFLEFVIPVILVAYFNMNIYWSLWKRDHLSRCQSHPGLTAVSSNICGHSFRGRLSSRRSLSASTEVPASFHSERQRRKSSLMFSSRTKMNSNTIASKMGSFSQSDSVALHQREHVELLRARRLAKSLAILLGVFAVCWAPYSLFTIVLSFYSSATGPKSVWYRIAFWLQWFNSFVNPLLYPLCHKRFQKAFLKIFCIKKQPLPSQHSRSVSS
UniProt Q5BJF2, sequence (whole entry, looked up): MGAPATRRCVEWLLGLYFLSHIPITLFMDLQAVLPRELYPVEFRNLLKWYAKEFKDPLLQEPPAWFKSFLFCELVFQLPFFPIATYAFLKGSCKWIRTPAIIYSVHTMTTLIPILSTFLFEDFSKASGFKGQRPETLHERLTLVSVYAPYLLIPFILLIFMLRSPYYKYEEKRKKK

Series 1
Structure (SMILES): CC(=O)N[C@@H](Cc1c[nH]c2ccccc12)C(=O)N[C@@H](CCC(=O)C=[N+]=[N-])C(=O)OC(C)C
host | route | dose | time | tumour volume
mouse, EL4 tumour | subcutaneous | 0.3 mg/kg | day 11 | 614 mm3 and 202 mm3 and 871 mm3 and 697 mm3 and 429 mm3 and 63.2 mm3
mice, MC-38 tumour rechallenge | – | 1 mg/kg | day 21 after injection | 0 mm3
mouse, EL4 tumour | subcutaneous | 0.1 mg/kg | day 9 | 495 mm3 and 1140 mm3 and 678 mm3 and 371 mm3 and 568 mm3 and 624 mm3
CES1-/- mice, OVA-expressing MC-38 tumour | – | dose not given | day 17 after injection | 0 mm3 and 66 mm3 and 126 mm3 and 21 mm3
mouse, EL4 tumour | subcutaneous | 0.1 mg/kg | day 15 | 883 mm3 and 863 mm3 and 616 mm3 and 647 mm3 and 2040 mm3 and 128 mm3

Series 2
Compound: Cn1cnc(Cn2ccc3ccc(CNCc4[nH]c5ccccc5c4[C@H]4NC(=O)c5ccc(O)cc54)cc32)c1
Target: GTPase KRas (KRAS, Homo sapiens, UniProt P01116, G12C)
Read-out: binding
Mode: competitor
Technique: NanoBRET
Cell line: HEK293
Reference: vehicle and 20 µM BI compound
tested at | time | normalized BRET
741 nM | 0.5 h | 63.2% and 72.7% and 64.2% and 65.3%
82.2 nM | 1 h | 98.3% and 90.8% and 95.1% and 106%
6.67 µM | 4 h | 3.53% and 5.74% and 4.55% and 4.07%
6.67 µM | 2 h | 3.65% and 2.4% and 4.42% and 3.12%

Series 3
SMILES: C[C@H]1CC[C@H](n2c3cnccc3c3cnc(Nc4ccc5c(n4)CCN(C(=O)CO)C5)nc32)CC1
Tested at: 1 µM
target | read-out | technique | remaining binding [%]
WEE2 (Homo sapiens, UniProt P0C1S8) | binding | competition with immobilised ligand | 100
TGFBR1 (Homo sapiens, UniProt P36897) | cell-free assay | competition with immobilised ligand | 95
MINK1 (Homo sapiens, UniProt Q8N4C8) | binding | competition with immobilised ligand | 69
STK38L (Homo sapiens, UniProt Q9Y2H1) | binding | – | 79
NEK11 (Homo sapiens, UniProt Q8NG66) | binding | competition with immobilised ligand | 100

Series 4
Compound: CO[C@@H](C)c1c(Nc2ccc([C@H](N(C)C(=O)C3CCS(=O)(=O)CC3)C(F)(F)F)cc2)cnc2cc(Cl)nn12
Read-out: ligand displacement
Tested at: 10 µM
target | inhibition
HRH1 (Homo sapiens, UniProt P35367) | 10.2%
TMEM97 (Homo sapiens, UniProt Q5BJF2) | 49.1%
HTR6 (Homo sapiens, UniProt P50406) | -23.5%
HTR7 (Homo sapiens, UniProt P34969) | -18.2%
HRH4 (Homo sapiens, UniProt Q9H3N8) | 3.84%
ADRA1D (Homo sapiens, UniProt P25100) | -6.69%
CHRM2 (Homo sapiens, UniProt P08172) | -11.6%
SIGMAR1 (Homo sapiens, UniProt Q99720) | 18.8%
ADRA1B (Homo sapiens, UniProt P35368) | 27.6%
DRD4 (Homo sapiens, UniProt P21917) | -10.4%
ADRA2C (Homo sapiens, UniProt P18825) | 4.48%
ADRA2A (Homo sapiens, UniProt P08913) | 14.6%

Some of these lines once more (series 4):
target | inhibition
HTR6 (Homo sapiens, UniProt P50406) | -23.5%
SIGMAR1 (Homo sapiens, UniProt Q99720) | 18.8%
HTR7 (Homo sapiens, UniProt P34969) | -18.2%
